Experimental data pooled from the literature.
Protocols differ between the studies behind these lines. ± gives the spread as reported. Where no end group is shown, it is not given here.
UniProt P28335, sequence (whole entry, looked up): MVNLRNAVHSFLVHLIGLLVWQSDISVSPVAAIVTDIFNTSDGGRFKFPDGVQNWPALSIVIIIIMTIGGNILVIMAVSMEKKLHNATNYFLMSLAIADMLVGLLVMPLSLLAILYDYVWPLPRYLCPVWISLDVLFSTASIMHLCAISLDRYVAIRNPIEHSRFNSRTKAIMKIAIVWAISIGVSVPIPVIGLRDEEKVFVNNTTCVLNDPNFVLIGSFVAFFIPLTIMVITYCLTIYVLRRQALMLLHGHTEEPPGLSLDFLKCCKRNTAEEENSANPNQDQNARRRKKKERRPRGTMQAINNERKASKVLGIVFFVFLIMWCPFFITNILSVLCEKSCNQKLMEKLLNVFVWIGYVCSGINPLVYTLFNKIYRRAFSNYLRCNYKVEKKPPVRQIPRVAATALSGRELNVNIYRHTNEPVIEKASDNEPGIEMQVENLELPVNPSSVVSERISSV

HVFLRF-NH2 (C-amide)
inhibition (Drosophila melanogaster; gut contraction; adult gut; 1 µM, within 10 min; relative to: DMS effect): 49%

O=C(NCC1CCNCC1)c1c[nH]c2nc(-c3ccc(CN4CCOCC4)cc3)ccc12
inhibition (Zika virus; viral replication; U-87 MG, FLR; 10 µM): < 68%

O=[N+]([O-])c1ccc2c(c1)nc(Cl)n2CCCO
inhibition (Human immunodeficiency virus 1; viral replication, inhibitor; TZM-bl; 10 µg/mL): -1.1%

N=C(N)NCCC[C@@H]1NC(=O)[C@H](CCCCNC(=O)CNC(=O)CNC(=O)CNC(=O)CC[C@H](NC(=O)CCOCCOCCOCCOCCNC(=O)c2ccc(NN)nc2)C(=O)NCC(=O)NCC(=O)NCC(=O)NCCCC[C@@H]2NC(=O)[C@@H](Cc3ccccc3)NC(=O)[C@H](CC(=O)O)NC(=O)CNC(=O)[C@H](CCCNC(=N)N)NC2=O)NC(=O)[C@@H](Cc2ccccc2)NC(=O)[C@H](CC(=O)O)NC(=O)CNC1=O [technetium-99m labelled]
tissue uptake (γ-counting; female athymic nude mice, U-87 MG xenograft, brain; intravenous, 2 h): 0.13 ± 0.02 %ID/g

O=C(NCC1CCNCC1)c1cc2ccc(-c3ccoc3)cc2[nH]1
inhibition (Zika virus; viral replication; U-87 MG, FLR; 10 µM): 99%

C=C1[C@H](CO)[C@@H](O)C[C@@H]1n1cnc2c(=O)[nH]c(N)nc21
inhibition (Hepatitis B virus; viral replication, inhibitor; HepG2.2.15; 10 µM, 48 h): 90%

CNC(C)Cc1ccc2c(c1)OCO2 (racemic)
subjective drug effect rating (Drug Effects Questionnaire, item: Feel Drug; human; oral, 1.5 mg/kg, mean over session, unit not given; relative to: pre-dose baseline): 44.4

CP(=O)(O)CCC(N)C(=O)O (stereo not drawn)
herbicidal activity (Amaranthus palmeri; 125 g/ha, 13 days, AMAPA, post-emergence spray; relative to: untreated (0%), complete kill (100%)): 100%

VDHVFLRF-NH2 (C-amide)
inhibition (Drosophila melanogaster; gut contraction; wandering third instar larval gut; injection, 1 µM, within 10 min; relative to: DMS effect): 29%

OCCn1c(Cl)nc2cc(Br)c(Br)cc21
inhibition (Human immunodeficiency virus 1; viral replication, inhibitor; TZM-bl; 2.5 µg/mL): 65.7%

C[C@H]1CNCCc2ccc(Cl)cc21
plasma concentration (Sprague-Dawley rat, male, plasma; subcutaneous, 0.5 mg/kg, 60 min): 10.4 ± 0.26 ng/mL

OCCCn1c(Cl)nc2cc(Br)c(Br)cc21
inhibition (Human immunodeficiency virus 1; viral replication, inhibitor; TZM-bl; 10 µg/mL): -4.5%

[123I]c1cncc(OC[C@@H]2CCN2)c1
tissue/plasma ratio (SPECT; human, thalamus; intravenous bolus, 7.35 mCi; relative to: plasma): 60.9

TDVDHVFLRA-NH2 (C-amide)
inhibition (Drosophila melanogaster; gut contraction; adult gut; 1 µM, within 10 min; relative to: DMS effect): 90%

CC(=O)OC[C@]12Oc3ccc(-c4ccc(O)c5c4O[C@@]4(COC(C)=O)C(=C(O)C[C@@H](C)[C@H]4OC(C)=O)C5=O)c(O)c3C(=O)C1=C(O)C[C@@H](C)[C@H]2OC(C)=O
inhibition (Phyllosticta citricarpa; mycelial growth; 10000 µg/mL, 504 h): 51.4%

DHVFLRF-NH2 (C-amide)
inhibition (Drosophila melanogaster; gut contraction; adult gut; 1 µM, within 10 min; relative to: DMS effect): 87%

Cc1[nH]c2cc(CN3CCN(c4ccc(F)cc4)CC3)ccc2c(=O)c1Br
inhibition (Plasmodium berghei; parasite growth; GFP, blood stages, mouse; oral, 10 mg/kg, 144 h): 91%

O=[N+]([O-])c1cc2nc(Cl)n(CCO)c2cc1[N+](=O)[O-]
inhibition (Human immunodeficiency virus 1; viral replication, inhibitor; TZM-bl; 10 µg/mL): -6.28%

O=C(NCc1ccc(F)c(Cl)c1)c1nc(Cl)c2cccnc2c1O
inhibition (Human betaherpesvirus 5; viral replication, inhibitor; HFF; 10 µM): 6.8%

c1ccc(CCN2CCCCC2)cc1
Ki (5-hydroxytryptamine receptor 2C (HTR2C, Homo sapiens, UniProt P28335); binding; NIH-3T3-Po; together with: [3H]mesulergine 0.40 nM): > 10 µM

OCCCn1c(Cl)nc2ccccc21
inhibition (Human immunodeficiency virus 1; viral replication, inhibitor; TZM-bl; 1 µg/mL): 1.02%

DVDHVFLRF-NH2 (C-amide)
inhibition (Drosophila melanogaster; heart rate; wandering third instar larval heart; 40 nL injected, 1 µM, 10 min; relative to: DMS): 127%

OCCn1c(Cl)nc2ccccc21
inhibition (Human immunodeficiency virus 1; viral replication, inhibitor; TZM-bl; 10 µg/mL): 2.06%

O=C(NCc1ccc(F)cc1)c1nc(-c2cccc(Cl)c2)c2cccnc2c1O
inhibition (Human betaherpesvirus 5; viral replication, inhibitor; HFF; 10 µM): 77%

CN[C@@](C)(C[18F])C(=O)O
tracer uptake (SK-OV-3 tumour model; host not given, lung; 15 min, tumour-bearing): 2.2 %ID/g

CC(C)c1ccc2c(c1)CC[C@H]1[C@](C)(CN)CCC[C@]21C
IC50 (C8161.Cl 9 melanoma; cell viability, MTS; 48 h): 6.13 ± 0.53 µM

O=C(NCc1ccc(Cl)c(Cl)c1)c1nc(Cl)c2cccnc2c1O
inhibition (Human betaherpesvirus 5; viral replication, inhibitor; HFF; 10 µM): 31%

For quick reference, copied from above:
OCCn1c(Cl)nc2cc(Br)c(Br)cc21
inhibition (Human immunodeficiency virus 1; viral replication, inhibitor; TZM-bl; 2.5 µg/mL): 65.7%

C[C@H]1CNCCc2ccc(Cl)cc21
plasma concentration (Sprague-Dawley rat, male, plasma; subcutaneous, 0.5 mg/kg, 60 min): 10.4 ± 0.26 ng/mL

OCCCn1c(Cl)nc2cc(Br)c(Br)cc21
inhibition (Human immunodeficiency virus 1; viral replication, inhibitor; TZM-bl; 10 µg/mL): -4.5%

[123I]c1cncc(OC[C@@H]2CCN2)c1
tissue/plasma ratio (SPECT; human, thalamus; intravenous bolus, 7.35 mCi; relative to: plasma): 60.9
